Measurements from different studies.
Each line is one published result; not all experiments were run side by side. ± marks the error that the study gave. Converted amounts (≈) assume the structure as drawn.
Sequence of UniProt Q5S006 (whole entry, looked up): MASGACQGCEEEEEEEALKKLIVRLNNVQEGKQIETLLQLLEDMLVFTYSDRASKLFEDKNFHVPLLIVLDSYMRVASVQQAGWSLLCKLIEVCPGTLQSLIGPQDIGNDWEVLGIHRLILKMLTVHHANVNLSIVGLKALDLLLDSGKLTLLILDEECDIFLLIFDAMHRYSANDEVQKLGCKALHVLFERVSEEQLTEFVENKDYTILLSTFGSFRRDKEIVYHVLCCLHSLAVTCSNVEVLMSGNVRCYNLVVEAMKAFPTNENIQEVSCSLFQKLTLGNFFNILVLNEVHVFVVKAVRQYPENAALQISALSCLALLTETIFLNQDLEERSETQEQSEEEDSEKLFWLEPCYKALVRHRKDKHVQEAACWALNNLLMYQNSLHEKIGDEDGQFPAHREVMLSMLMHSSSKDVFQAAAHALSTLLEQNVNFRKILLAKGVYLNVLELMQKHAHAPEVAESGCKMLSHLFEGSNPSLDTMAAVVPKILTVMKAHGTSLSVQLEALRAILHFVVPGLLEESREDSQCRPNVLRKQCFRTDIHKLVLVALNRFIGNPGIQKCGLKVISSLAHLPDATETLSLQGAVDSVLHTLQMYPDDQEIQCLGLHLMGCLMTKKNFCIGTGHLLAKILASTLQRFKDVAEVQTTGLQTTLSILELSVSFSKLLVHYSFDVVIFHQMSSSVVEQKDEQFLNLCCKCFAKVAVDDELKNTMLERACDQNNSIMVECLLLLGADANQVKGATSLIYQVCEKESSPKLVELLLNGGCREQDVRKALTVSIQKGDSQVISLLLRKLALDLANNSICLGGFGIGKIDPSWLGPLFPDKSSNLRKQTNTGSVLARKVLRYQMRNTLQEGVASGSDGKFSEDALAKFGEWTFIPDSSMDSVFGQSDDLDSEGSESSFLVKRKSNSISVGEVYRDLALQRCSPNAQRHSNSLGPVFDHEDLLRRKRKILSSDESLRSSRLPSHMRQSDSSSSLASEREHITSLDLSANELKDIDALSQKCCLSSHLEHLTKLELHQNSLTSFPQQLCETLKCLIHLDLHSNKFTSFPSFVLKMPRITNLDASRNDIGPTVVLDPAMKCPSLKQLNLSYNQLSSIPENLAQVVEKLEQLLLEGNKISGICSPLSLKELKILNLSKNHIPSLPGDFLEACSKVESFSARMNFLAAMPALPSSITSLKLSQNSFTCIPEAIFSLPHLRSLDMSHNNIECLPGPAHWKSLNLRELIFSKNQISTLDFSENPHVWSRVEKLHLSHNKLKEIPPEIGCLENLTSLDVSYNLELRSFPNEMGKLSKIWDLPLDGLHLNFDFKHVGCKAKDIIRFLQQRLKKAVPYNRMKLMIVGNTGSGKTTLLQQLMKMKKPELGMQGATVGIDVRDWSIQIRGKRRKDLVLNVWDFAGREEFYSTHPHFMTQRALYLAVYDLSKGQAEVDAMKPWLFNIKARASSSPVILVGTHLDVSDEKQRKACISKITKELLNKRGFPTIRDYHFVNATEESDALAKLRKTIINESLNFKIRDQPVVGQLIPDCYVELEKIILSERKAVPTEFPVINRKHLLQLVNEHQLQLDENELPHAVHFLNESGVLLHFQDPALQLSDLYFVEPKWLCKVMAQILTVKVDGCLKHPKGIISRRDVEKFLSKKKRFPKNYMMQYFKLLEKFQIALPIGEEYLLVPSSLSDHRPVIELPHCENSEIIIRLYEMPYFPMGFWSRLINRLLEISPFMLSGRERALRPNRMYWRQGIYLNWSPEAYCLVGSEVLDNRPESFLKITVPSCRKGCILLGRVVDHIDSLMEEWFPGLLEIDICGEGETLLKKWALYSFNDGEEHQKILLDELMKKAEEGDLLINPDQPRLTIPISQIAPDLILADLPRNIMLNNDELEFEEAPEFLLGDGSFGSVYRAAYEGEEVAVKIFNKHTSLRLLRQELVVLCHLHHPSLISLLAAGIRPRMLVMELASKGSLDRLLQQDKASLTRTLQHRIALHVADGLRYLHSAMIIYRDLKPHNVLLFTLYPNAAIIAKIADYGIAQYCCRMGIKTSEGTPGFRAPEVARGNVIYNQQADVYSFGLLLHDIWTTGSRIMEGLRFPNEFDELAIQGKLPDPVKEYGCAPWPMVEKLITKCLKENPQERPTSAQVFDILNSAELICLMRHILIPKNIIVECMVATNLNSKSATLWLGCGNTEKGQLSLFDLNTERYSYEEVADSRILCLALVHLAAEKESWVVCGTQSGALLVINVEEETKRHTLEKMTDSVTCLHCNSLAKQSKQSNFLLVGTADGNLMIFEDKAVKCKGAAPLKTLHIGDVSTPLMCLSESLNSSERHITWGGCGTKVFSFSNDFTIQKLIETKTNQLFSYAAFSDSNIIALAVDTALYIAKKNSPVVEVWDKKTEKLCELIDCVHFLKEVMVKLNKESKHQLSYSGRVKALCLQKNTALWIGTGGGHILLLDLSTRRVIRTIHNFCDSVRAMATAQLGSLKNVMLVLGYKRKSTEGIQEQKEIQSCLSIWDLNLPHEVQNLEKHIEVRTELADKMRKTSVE
Sequence of UniProt Q80W57 (whole entry, looked up): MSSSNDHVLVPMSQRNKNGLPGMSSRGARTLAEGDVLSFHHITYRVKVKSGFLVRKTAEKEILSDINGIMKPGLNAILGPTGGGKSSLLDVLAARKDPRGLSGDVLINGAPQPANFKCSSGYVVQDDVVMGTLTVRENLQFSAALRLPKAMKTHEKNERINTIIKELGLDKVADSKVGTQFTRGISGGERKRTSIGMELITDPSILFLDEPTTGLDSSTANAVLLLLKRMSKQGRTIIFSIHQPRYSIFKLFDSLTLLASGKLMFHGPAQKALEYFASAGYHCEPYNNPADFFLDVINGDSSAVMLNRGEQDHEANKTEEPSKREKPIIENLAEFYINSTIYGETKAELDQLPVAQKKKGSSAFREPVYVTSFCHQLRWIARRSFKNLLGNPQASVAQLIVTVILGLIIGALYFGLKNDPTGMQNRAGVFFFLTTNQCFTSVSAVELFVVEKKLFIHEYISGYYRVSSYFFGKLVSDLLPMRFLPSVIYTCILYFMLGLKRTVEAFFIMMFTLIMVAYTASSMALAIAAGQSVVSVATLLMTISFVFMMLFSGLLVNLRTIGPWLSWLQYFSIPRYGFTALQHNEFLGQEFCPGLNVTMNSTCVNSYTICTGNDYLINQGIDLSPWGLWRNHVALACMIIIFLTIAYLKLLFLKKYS

With `CNC(=O)c1cc(Oc2ccc(NC(=O)Nc3ccc(Cl)c(C(F)(F)F)c3)c(F)c2)ccn1` the AUC(0-8 h) was 0.302 ng·h/mL (healthy male human, plasma; ocular, 0.75 mg single, first dose).
`CC(C)NCC(O)c1ccc(NS(C)(=O)=O)cc1` (racemic) gave a QTc change of 18.9 ± 6.6% (male Hartley guinea pig, anaesthetized; intravenous infusion, 10 mg/kg, 10 min infusion; relative to: baseline).
For `O=C(O)c1cc(/N=N/c2ccc(S(=O)(=O)Nc3ccccn3)cc2)ccc1O`, the half-life was 138 min (Abcg2 (Rattus norvegicus, UniProt Q80W57); male Sprague-Dawley rat, plasma; oral, 2 mg/kg).
The tissue/serum ratio of `des-acyl ghrelin (human)` is reported as 5.82 µL/g (Ghsr knockout mice, midbrain; intravenous, dose not given, 10 min, vascular space corrected).
The extravasation half-life of `CC1(C)C(/C=C/C=C/C=C/C=C2\N(CCCCS(=O)(=O)O)c3ccc4ccccc4c3C2(C)C)=[N+](CCCCS(=O)(=O)[O-])c2ccc3ccccc3c21` is reported as 6.5 min (NIR fluorescence imaging; mouse, ear; intravenous).
With `Cc1c(O)cccc1C(=O)N[C@@H](CSc1ccccc1)[C@H](O)CN1C[C@H]2CCCC[C@H]2C[C@H]1C(=O)NC(C)(C)C` the effective permeability was 53.1 ± 4.9 ×10⁻⁶ cm/s (equilibrium dialysis; cellulose membrane, cell-free; pH 7.4, together with: 0.5% w/w Pluronic P85).
For `O=c1c(-c2ccccc2)c1-c1ccccc1`, “maximal peptide depletion” read -43.8% (cysteine peptide Ac-RFAACAA-COOH; DPRA RapidFire-MS/MS; 24 h, pH 7.5, together with: 5.0 µM cysteine peptide).
`CCCOc1ccc([C@H]2CNC(=O)N2c2ccc3[nH]cnc3c2)cc1` gave a Tmax of 30 min (human, plasma; oral, 400 mg, single dose, fasted).
With `O=C(O)c1cc(-c2ccc(F)cc2F)ccc1O` the thermodynamic solubility was 7.86 ± 0.59 mg/g (shake-flask; soybean oil; 37 °C).
With `CCCC(C)N1CCC(N(Cc2ccccc2)C(=O)Nc2cc(F)cc(C(F)(F)F)c2)CC1` (stereo not shown) the intrinsic clearance was 290 mL/min/kg (CD-1 female mouse, liver microsomes; 0.8 µM).
With `C=CC(N)CCC(=O)O` (stereo not shown) the Tmax (median) was 40.2 min (male Sprague-Dawley rat, plasma; oral, 1.0 mg/kg, formulation 5, together with: Sar 200 mg/kg).
Under “average plasma concentration”, `CN1CC[C@@H](NC(=O)Nc2ccc(C#N)cc2)C[C@@H]1c1nc2ccccc2[nH]1` is recorded as 190 ng/mL (Japanese patients, plasma; oral, 25 mg once daily, cycle 1 day 21, steady state, geometric mean).
For `C=C[C@@H]1C[C@]1(NC(=O)[C@@H]1C[C@@H](Oc2ncc(OC)c3ccc(Cl)cc23)CN1C(=O)[C@@H](NC(=O)OC(C)(C)C)C(C)(C)C)C(=O)NS(=O)(=O)C1CC1`, the Papp A→B was 3.4 ×10⁻⁶ cm/s (Caco-2).
`Clc1ccccc1C(c1ccccc1)(c1ccccc1)n1ccnc1` has a thermodynamic solubility of 15.1 ± 0.76 mg/g (shake-flask; soybean oil; 37 °C).
`Cc1cc(-c2cc(OC(=O)c3ccccc3)ccc2Cl)cc2nnc(Nc3ccc(OCCN4CCCC4)cc3)nc12` has a concentration of 7 nM (Long Evans rat, retina; topical, 1%, 24 h).
`C[C@](N)(Cc1ccc(O)c(O)c1)C(=O)O` has a solubility of 231 µg/mL (≈ 1100 µM) (supercritical carbon dioxide; 5 h, 313 K, 24 MPa, density 873.9 kg/m3).
`NC(=O)N1c2ccccc2C=Cc2ccccc21` gave a thermodynamic solubility of 34.6 ± 1.45 mg/g (shake-flask; polysorbate 80; 37 °C).
With `Cc1ncnc2c1c(Cl)cn2[C@@H]1O[C@H](CO)[C@@H](O)[C@H]1O` the compound remaining was 104% (metabolic stability; mouse, liver microsomes; 30 min).
With `N[C@@H](CC(=O)N1CCn2c(nnc2C(F)(F)F)C1)Cc1cc(F)c(F)cc1F` the AUC(0-2 h) was 478 ± 159 ng·h/mL (healthy Korean subjects, plasma; oral, 100 mg single dose, ABCB1 G2677T/A TA).
For `COc1cc(OC)c(/C=C/S(=O)(=O)Cc2ccc(OC)c(NCC(=O)O)c2)c(OC)c1`, the half-life was 1540 ± 2300 min (cancer patients, phase I, plasma; oral, 140 mg twice daily, day 21 cycle 1).
With `C[C@@H]1O[C@@H](Oc2c(-c3ccc(O)c(O)c3)oc3cc(O)cc(O)c3c2=O)[C@H](O)[C@H](O)[C@H]1O` the Papp A→B was 5.6 ×10⁻⁶ cm/s (mass spectrometry; Caco-2; 40 µM, 6 h).
`COc1cc(C)c(/C=C/C(C)=C/C=C/C(C)=C/C(=O)O)c(C)c1C` has a thermodynamic solubility of 3.09 ± 0.03 mg/g (shake-flask; polysorbate 80; 37 °C).
`C/C=C/C=C/C=C\CC/C=C/C(=O)NCC(C)(C)O` has a recovery of 0.04% (rat, small intestine site 4 contents; oral, dose not given, 4 h, β-glucuronidase treated; relative to: ingested amount).
`CC(C)[C@H](NC(=O)[C@@]1(Cc2ccccc2)CCN1C(=O)OCc1ccccc1)C(N)=O` — result for “minimum cytotoxic concentration”: greater than 100 µM (HEL; microscopic cell morphology).
The AUC(0-last) of `CCCC[C@H](NC(C)=O)C(=O)N[C@H]1CCC(=O)NC[C@@H](C(=O)N[C@@H](Cc2c[nH]c3ccccc23)C(N)=O)NC(=O)[C@H](CCCNC(=N)N)NC(=O)[C@@H](Cc2ccccc2)NC(=O)[C@H](Cc2c[nH]cn2)NC1=O` is reported as 258 ng·h/mL (beagle dog, female, plasma; subcutaneous, 1.5 mg/kg daily, day 14).
The Kd of `Nc1ncnc2c1ncn2[C@@H]1O[C@H](COP(=O)(O)OP(=O)(O)O)[C@@H](O)[C@H]1O` is reported as 270 ± 4 nM (ATP1A1 (Sus scrofa, UniProt P05024); binding, radioligand binding; pig membranes; pH 7.7, 0 °C, ionic strength 78 mM, together with: NaCl 19 mM).
The activity of `COc1ccc(C)c2sc(N(Cc3cccnc3)C(=O)c3ccc(C#N)cc3)nc12` is reported as 87% (Trypanosoma cruzi; trypomastigote viability; Tulahuen; 87 µM, 48 h, solid sample).
With `CC1(C)Oc2cc3oc(=O)ccc3cc2C[C@@H]1O` the organ weight was 0.27 ± 0.03 g (CD-1 mouse, male, testes; oral gavage, 80 mg/kg daily, 4 weeks).
`O=C1N=C(N2CCOCC2)CN1c1ccc(Cl)cc1`: “apparent oral clearance” 6.58 mL/min/kg (beagle dog, female, plasma; oral, 30 mg/kg, tablets, fed).
The Cmin,ss of `CCN(CC)CCNC(=O)c1c(C)[nH]c(/C=C2\C(=O)Nc3ccc(F)cc32)c1C` is reported as 42.1 ± 3.1 ng/mL (human; oral, 50 mg/day, day 15-29, NNRTI group).
The logD of `COCCN1C(=O)c2ccccc2NC12C(=O)N(C)c1ccc(Br)cc12` (stereo not shown) is reported as 2.4 (shake flask; aqueous buffer; pH 7.4).
`CCCCCCCCCCCCCCCC(=O)OC[C@H]1O[C@H](OC)[C@@H](O)[C@@H](O)[C@@H]1OC(=O)CCCCCCCCCCCCCCC`: “critical micelle concentration range” 0.25 to 5 µM (tensiometry; water).
`Nc1ncnc2c1ncn2[C@@H]1O[C@H](COP(=O)(O)OP(=O)(O)O)[C@@H](O)[C@H]1O` gave a Ki of 200 ± 20 µM (Lrrk2 (Mus musculus, UniProt Q5S006); enzyme activity, inhibitor, radiometric; Ki,eb, together with: LRRKtide substrate varied).
For `C[N+]1(CC(=O)OC2CCCCCCCCCCC2)CCSCC1`, the microsomal CLint was 346 µL/min/mg (metabolic stability; male CD-1 mouse, liver microsomes; 1 µM, pH 7.4).
For `CCCC[C@@H]1NC(=O)[C@@H](NC(=O)[C@H](CCC(=O)O)NC(=O)CNC(=O)CN2CCN(CC(=O)O)CCN(CC(=O)O)CCN(CC(=O)O)CC2)CCCCNC(=O)C[C@@H](C(N)=O)NC(=O)[C@H](C(C)C)NC(=O)[C@@H]2CCCN2C(=O)[C@H](CCCNC(=N)N)NC(=O)CNC(=O)[C@H](Cc2c[nH]c3ccccc23)NC(=O)[C@H](CCCNC(=N)N)NC(=O)[C@@H](Cc2ccccc2)NC(=O)[C@H](Cc2c[nH]cn2)NC(=O)[C@H](CCC(=O)O)NC1=O` [indium-111 labelled], the tissue uptake was 0.03 ± 0.02 %ID/g (normal C57 mice, heart; intravenous, 0.037 MBq, 4 h).
For `Cc1nc2cccc(OCC(C)(C)C(=O)NC(C)C)c2c(N)c1C(=O)O`, the AUC(0-last) was 48.1 ± 33.2 ng·h/mL (Crl:CD(SD) rat, male, plasma; oral gavage, 10 mg/kg, day 7).
Under “concentration at 168 h”, `CS(=O)(=O)n1cc2c(n1)CN([C@H]1CO[C@H](c3cc(F)ccc3F)[C@@H](N)C1)C2` is recorded as 174 nM (healthy male human, plasma; oral, 400 mg single, fasted, geometric mean).
`C[C@]12CC[C@@H]3c4ccc(O)cc4CC[C@H]3[C@@H]1C[C@@H](O)[C@@H]2O` — result for “median serum concentration”: 0 ng/mL (GC-MS; breast cancer women on NSAI, serum; vaginal, 0.03 mg, 6 h, day 0).
`NC(=O)[C@H](Cc1ccccc1)NC(=O)[C@@]1(Cc2ccccc2)CCN1C(=O)OCc1ccccc1` — result for “minimum cytotoxic concentration”: 100 µM (HEL; microscopic cell morphology).
`CC(C)[C@H](NC(=O)[C@@H]1CCCN1C(=O)[C@H](CCCNC(=N)N)NC(=O)[C@H](CS)NC(=O)[C@H](Cc1c[nH]c2ccccc12)NC(=O)[C@H](CCCNC(=N)N)NC(=O)[C@@H](Cc1ccccc1)NC(=O)[C@H](Cc1c[nH]cn1)NC(=O)[C@H](CCC(=O)O)NC(=O)[C@H](CS)NC(=O)[C@H](CS)NC(=O)[C@H](CCCCN)NC(=O)[C@@H]1CC(=O)N[C@@H](CCCNC(=N)N)C(=O)N[C@@H](C)C(=O)N[C@@H](CC(=O)O)C(=O)N[C@H](Cc2ccc(O)cc2)C(=O)N1)C(N)=O` [technetium-99m labelled] gave a tissue uptake of 2.22 ± 0.39 %ID/g (C57 mice, liver; intravenous, 0.037 MBq, 2 h).
With `Cc1cc(-n2c(=O)[nH]c(=O)n(C)c2=O)ccc1Oc1ccc(SC(F)(F)F)cc1` the thermodynamic solubility was 2.06 ± 0.15 mg/g (shake-flask; Captex 355; 37 °C).
Under peptide depletion, `Cc1ccc2oc(=O)ccc2c1` is recorded as “inactive” (cysteine peptide Ac-RFAACAA-COOH; DPRA RapidFire-MS/MS; 24 h, pH 7.5, together with: 5.0 µM cysteine peptide).
With `Cc1cccc(Nc2ccccc2C(=O)O)c1C` the thermodynamic solubility was 25.1 ± 0.86 mg/g (shake-flask; PEG400; 37 °C).
The fraction absorbed of `CCc1oc2ccccc2c1C(=O)c1cc(Br)c(O)c(Br)c1` is reported as 0.58 (male Sprague-Dawley rats, whole blood; oral capsule, 15.2 to 17.2 mg/kg; relative to: intravenous 0.5 mg/kg).
`CCCCCCCCCCCCCCCCCCOP(=O)([O-])OC1CC[N+](C)(C)CC1` gave an AUC(0-inf) of 1430 µg·h/mL (rhesus monkey, male, plasma; oral, 7 mg/kg, single dose).
`COc1ccc2nc([S@@+]([O-])Cc3ncc(C)c(OC)c3C)[nH]c2c1` has an adverse events of 0% (human healthy; 40 mg, general disorders).

Some of these lines once more:
With `N[C@@H](CC(=O)N1CCn2c(nnc2C(F)(F)F)C1)Cc1cc(F)c(F)cc1F` the AUC(0-2 h) was 478 ± 159 ng·h/mL (healthy Korean subjects, plasma; oral, 100 mg single dose, ABCB1 G2677T/A TA).
For `COc1cc(OC)c(/C=C/S(=O)(=O)Cc2ccc(OC)c(NCC(=O)O)c2)c(OC)c1`, the half-life was 1540 ± 2300 min (cancer patients, phase I, plasma; oral, 140 mg twice daily, day 21 cycle 1).
With `C[C@@H]1O[C@@H](Oc2c(-c3ccc(O)c(O)c3)oc3cc(O)cc(O)c3c2=O)[C@H](O)[C@H](O)[C@H]1O` the Papp A→B was 5.6 ×10⁻⁶ cm/s (mass spectrometry; Caco-2; 40 µM, 6 h).
